{"data": "Experimental data gathered from unrelated publications", "note": "Protocols differ between the studies behind these lines. Numbers after ± are the reported error."}
{"Molecule": "Cc1ccc([N+](=O)[O-])[c]2c1[O][Hg]2", "tested on": "HeLa", "assay": "Ebola VLP entry", "measurement": "IC50", "result": "4.85 µM"}
{"Molecule": "COc1ccc(CCNC(=O)c2sc3nc(-c4cccs4)ccc3c2N)cc1OC", "tested on": "ScN2a-cl3", "assay": "PrPSc level", "measurement": "EC50", "result": "> 10 µM"}
{"Molecule": "OCCN1CCN(CCC=C2c3ccccc3Sc3ccc(C(F)(F)F)cc32)CC1", "tested on": "Huh-7", "assay": "pseudovirus entry", "system": "MERS-CoV spike pseudovirus", "measurement": "EC90", "result": "6.8 ± 0.4 µM"}
{"Molecule": "O=C(CCC1CCN(Cc2ccccc2)CC1)c1ccc2c(c1)NCCCC2.O=C(O)/C=C/C(=O)O", "tested on": "HeLa", "assay": "Ebola VLP entry", "measurement": "maximal inhibition", "result": "91%"}
{"Molecule": "CNC(=O)[C@@H](NC(=O)[C@H](CC(C)C)[C@H](O)C(=O)NO)C(C)(C)C", "tested on": "C2C12", "setting": "1 µM, together with: MH venom", "how to read": "reference: venom alone", "measurement": "viability difference", "result": "-0.671%"}
{"Molecule": "Cn1cnc(Cn2c(=O)[nH]/c(=N\\c3cc4cn(C)nc4cc3Cl)n(Cc3cc(F)c(F)cc3F)c2=O)n1", "system": "human, all renal function groups", "setting": "oral, 375 mg, treatment-related decreased GFR, Severe severity", "measurement": "patients with adverse event", "result": "0%"}
{"Molecule": "CCc1c(C(=O)C(N)=O)c2c(OCC(=O)O)cccc2n1Cc1ccccc1", "tested on": "C2C12", "setting": "10 µM, together with: TN venom", "how to read": "reference: venom alone", "measurement": "viability difference", "result": "23.1%"}
{"Molecule": "Fc1ccc(C(OCCN2CCN(CCCc3ccccc3)CC2)c2ccc(F)cc2)cc1", "tested on": "HeLa", "assay": "Ebola VLP entry", "measurement": "maximal inhibition", "result": "100%"}
{"Molecule": "CC[C@H](C)[C@H](N)C(=O)NCC(=O)N[C@@H](CC(N)=O)C(=O)N[C@@H](Cc1ccc(O)cc1)C(=O)N[C@H](C(=O)N[C@H](C(=O)N[C@@H](CO)C(=O)N[C@@H](CS)C(=O)N[C@@H](CC(C)C)C(=O)N1CCC[C@H]1C(=O)N[C@@H](Cc1ccccc1)C(=O)N[C@H](C(=O)N[C@H](C(=O)N[C@@H](CC(N)=O)C(=O)N[C@@H](CS)C(=O)O)[C@@H](C)CC)[C@@H](C)O)C(C)C)[C@@H](C)O", "tested on": "human PBMC CD4 T cells", "assay": "AIM", "measurement": "responding donors", "result": "45%"}
{"Molecule": "OC(COc1cccc(OCC(O)CN2CCCCC2)c1)CN1CCCCC1 (stereo not drawn)", "tested on": "HEK293T", "assay": "pseudovirus entry", "system": "SARS-CoV spike pseudotyped HIV-1", "setting": "72 h", "measurement": "EC50", "result": "3 µM"}
{"Molecule": "CC(=O)c1ccc(NC(=O)c2sc3nc(-c4cccs4)ccc3c2N)cc1", "tested on": "ScN2a-cl3", "assay": "PrPSc level", "measurement": "EC50", "result": "0.1 ± 0.02 µM"}
{"Molecule": "C[C@@H]1Cc2c(Cl)cc(C(=O)N[C@H](Cc3ccccc3)C(=O)O)c(O)c2C(=O)O1", "tested on": "SL-29 chicken embryo fibroblasts", "assay": "metabolic activity, MTT", "setting": "concentration not given, 48 h", "how to read": "reference: compound over ochratoxin A", "measurement": "relative concentration equal effect", "result": "27 fold"}
{"Molecule": "CN(C)CCOc1ccc(/C(=C(/CCCl)c2ccccc2)c2ccccc2)cc1", "tested on": "Huh-7", "assay": "pseudovirus entry", "system": "MERS-CoV spike pseudovirus", "measurement": "EC90", "result": "> 20 µM"}
{"Molecule": "COc1ccc(CCNC(=O)c2cc(Nc3ccccc3)nc3ccccc23)cc1OC", "tested on": "SARS-CoV-2", "assay": "cytopathic effect", "system": "USA_WA1/2020", "setting": "retest, 8-point, duplicates", "measurement": "efficacy", "result": "0%"}
{"Molecule": "CCCCc1oc2ccccc2c1C(=O)c1cc(I)c(OCCN(CC)CC)c(I)c1", "tested on": "Huh-7", "assay": "pseudovirus entry", "system": "MERS-CoV spike pseudovirus", "measurement": "EC90", "result": "> 20 µM"}
{"Molecule": "CC[C@H](C)[C@H](NC(=O)[C@H](CC(C)C)NC(=O)[C@H](Cc1c[nH]c2ccccc12)NC(=O)[C@H](CCC(N)=O)NC(=O)[C@@H](NC(=O)[C@H](Cc1ccccc1)NC(=O)[C@H](C)NC(=O)[C@H](CCCCNC(=O)COCCOCCNC(=O)COCCOCCNC(=O)CC[C@H](NC(=O)CCCCCCCCCCCCCCCCCCC(=O)O)C(=O)O)NC(=O)[C@H](CCC(N)=O)NC(=O)[C@H](C)NC(=O)[C@@H](NC(=O)[C@H](CCCCN)NC(=O)[C@H](CC(=O)O)NC(=O)[C@H](CC(C)C)NC(=O)C(C)(C)NC(=O)[C@@H](NC(=O)[C@H](CO)NC(=O)[C@H](Cc1ccc(O)cc1)NC(=O)[C@H](CC(=O)O)NC(=O)[C@H](CO)NC(=O)[C@@H](NC(=O)[C@H](Cc1ccccc1)NC(=O)[C@@H](NC(=O)CNC(=O)[C@H](CCC(=O)O)NC(=O)C(C)(C)NC(=O)[C@@H](N)Cc1ccc(O)cc1)[C@@H](C)O)[C@@H](C)O)[C@@H](C)CC)[C@@H](C)CC)C(C)C)C(=O)N[C@@H](C)C(=O)NCC(=O)NCC(=O)N1CCC[C@H]1C(=O)N[C@@H](CO)C(=O)N[C@@H](CO)C(=O)NCC(=O)N[C@@H](C)C(=O)N1CCC[C@H]1C(=O)N1CCC[C@H]1C(=O)N1CCC[C@H]1C(=O)N[C@@H](CO)C(N)=O", "assay": "refers to: anti-drug antibodies", "system": "healthy human subjects", "setting": "1.5 mg multiple ascending, titer ≥1:20", "measurement": "subjects with treatment-induced ADA", "result": "0%"}
{"Molecule": "Nc1ncnc2c([C@@H]3N[C@H](CO)[C@@H](O)[C@H]3O)c[nH]c12", "tested on": "Western equine encephalitis virus", "assay": "viral replication, inhibitor", "system": "Vero 76", "setting": "9.5 µM", "measurement": "inhibition", "result": "3.6%"}
{"Molecule": "C[C@@H]1CN(CCCn2c3ccccc3c3ccccc32)C[C@H](C)N1.Cl.Cl", "tested on": "HeLa", "assay": "Ebola VLP entry", "measurement": "maximal inhibition", "result": "98%"}
{"Molecule": "diphtheria toxin A chain", "tested on": "HeLa", "assay": "cell proliferation, CellTiter-Glo", "setting": "72 h", "measurement": "EC50", "result": "4 µM"}
{"Molecule": "O=C1NCN(c2ccccc2)C12CCN(CCCOc1ccc(F)cc1)CC2", "tested on": "HeLa", "assay": "Ebola VLP entry", "measurement": "IC50", "result": "19.3 µM"}
{"Molecule": "CC(CN(C)C)CN1c2ccccc2Sc2ccccc21 (stereo not drawn)", "tested on": "Huh-7", "assay": "pseudovirus entry", "system": "MERS-CoV spike pseudovirus", "measurement": "EC50", "result": "0.73 ± 0.13 µM"}
{"Molecule": "CCN(CC)CCCNC(=O)c1ccc(-c2nc(CN3CCc4ccccc43)c(C)o2)cc1", "tested on": "SARS-CoV-2", "assay": "cytopathic effect", "system": "USA_WA1/2020", "setting": "round 2, 5-point", "measurement": "efficacy", "result": "127%"}
{"Molecule": "CN1CCCN(C(c2ccccc2)c2ccc(Cl)cc2)CC1 (stereo not drawn)", "tested on": "HeLa", "assay": "Ebola VLP entry", "measurement": "IC50", "result": "10.9 µM"}
{"Molecule": "COc1cc(Nc2c(C#N)cnc3cc(OCCCN4CCN(C)CC4)c(OC)cc23)c(Cl)cc1Cl", "tested on": "Huh-7", "assay": "pseudovirus entry", "system": "MERS-CoV spike pseudovirus", "measurement": "EC50", "result": "1.25 ± 0.01 µM"}
{"note": "Repeated from above:"}
{"Molecule": "Fc1ccc(C(OCCN2CCN(CCCc3ccccc3)CC2)c2ccc(F)cc2)cc1", "tested on": "HeLa", "assay": "Ebola VLP entry", "measurement": "maximal inhibition", "result": "100%"}
{"Molecule": "CC[C@H](C)[C@H](N)C(=O)NCC(=O)N[C@@H](CC(N)=O)C(=O)N[C@@H](Cc1ccc(O)cc1)C(=O)N[C@H](C(=O)N[C@H](C(=O)N[C@@H](CO)C(=O)N[C@@H](CS)C(=O)N[C@@H](CC(C)C)C(=O)N1CCC[C@H]1C(=O)N[C@@H](Cc1ccccc1)C(=O)N[C@H](C(=O)N[C@H](C(=O)N[C@@H](CC(N)=O)C(=O)N[C@@H](CS)C(=O)O)[C@@H](C)CC)[C@@H](C)O)C(C)C)[C@@H](C)O", "tested on": "human PBMC CD4 T cells", "assay": "AIM", "measurement": "responding donors", "result": "45%"}
{"Molecule": "OC(COc1cccc(OCC(O)CN2CCCCC2)c1)CN1CCCCC1 (stereo not drawn)", "tested on": "HEK293T", "assay": "pseudovirus entry", "system": "SARS-CoV spike pseudotyped HIV-1", "setting": "72 h", "measurement": "EC50", "result": "3 µM"}
